# Measured values of several laboratories.
# Protocols differ between the studies behind these lines.
SMILES,target or system,assay,test system,conditions,endpoint,value
CO/C1=C\C(C)=C\[C@@H](C)[C@@H](O)[C@@H](C)C/C(C)=C/C=C/[C@H](OC)[C@@H]([C@@H](C)[C@@H](O)[C@H](C)C(=O)/C=C/[C@H](C)[C@H](O)C(C)C)OC1=O,Severe acute respiratory syndrome coronavirus 2,viral replication,Calu-3,50 µM,inhibition,92%
CC(=O)O[C@@H]1[C@@H](OC(C)=O)[C@@H](OC(C)=O)C(OC(=N)C(Cl)(Cl)Cl)O[C@H]1C (stereo partly shown),Severe acute respiratory syndrome coronavirus 2,viral replication,293T/ACE2,20 µM,inhibition,53.7%
COC(=O)c1cc2c(=O)n3ccccc3nc2n1Cc1ccccc1,Severe acute respiratory syndrome coronavirus 2,viral replication,Vero,1 µM,inhibition,62.3%
Cc1ccc(N2CC3CC(C2)N3C)cc1C(=O)NC1(c2ccc3c4c(cccc24)C(=O)N3C)CC1,Severe acute respiratory syndrome coronavirus 2,viral replication,Vero C1008,4.167 µM,inhibition,100%
CC(=O)OC1(C)CC(C=C(C)CCC=C(C)C)OC2(C=C(CO)C3CC(=O)C(C)=CC3O2)C1 (stereo not shown),Severe acute respiratory syndrome coronavirus 2,viral replication,Calu-3,50 µM,inhibition,91%
CC(=O)OCC1OC(OC2CCC3(C)C(CCC4(C)C3CC=C3C5CC(C)(C)CCC5(C(=O)O)CCC34C)C2(C)C)C(OC2OC(C)C(OC(C)=O)C(OC(C)=O)C2OC(C)=O)C(OC(C)=O)C1OC1OC(C)C(OC(C)=O)C(OC(C)=O)C1OC(C)=O (stereo not shown),Severe acute respiratory syndrome coronavirus 2,viral replication,293T/ACE2,20 µM,inhibition,48.2%
Nc1ncnc2c1ncn2[C@@H]1O[C@H](CSCc2cccc(C(=O)O)c2)[C@@H](O)[C@H]1O,Severe acute respiratory syndrome coronavirus 2,"viral replication, outcome no inhibition, N-protein immunofluorescence",Calu-3,200 µM,inhibition,no inhibition
CC1OC(OC2C(CO)OC(OC3CCC4(C)C(CCC5(C)C4CC=C4C6CC(C)(C)CCC6(C(=O)O)CCC45C)C3(C)C)C(OC3OC(C)C(O)C(O)C3O)C2O)C(O)C(O)C1O (stereo not shown),Severe acute respiratory syndrome coronavirus 2,viral replication,293T/ACE2,20 µM,inhibition,57.6%
CCCCCCCCCCCCCCCC(=O)N[C@@H](CCC(=O)NCCOCCOCCC(=O)NCCOCCOCCC(=O)NCCCC[C@H](NC(=O)[C@H](CC(=O)O)NC(=O)[C@H](CC(C)C)NC(=O)[C@H](Cc1ccc(O)cc1)NC(=O)[C@H](CCCCN)NC(=O)[C@H](CO)NC(=O)[C@H](Cc1ccc(O)cc1)NC(=O)[C@H](CC(=O)O)NC(=O)[C@H](CO)NC(=O)[C@@H](NC(=O)[C@H](Cc1ccccc1)NC(=O)[C@@H](NC(=O)CNC(=O)[C@H](CCC(N)=O)NC(=O)[C@@H](CO)NC(=O)[C@@H](N)Cc1c[nH]cn1)[C@@H](C)O)[C@@H](C)O)C(=O)N[C@@H](CCCNC(=N)N)C(=O)N[C@@H](CCCNC(=N)N)C(=O)N[C@@H](C)C(=O)N[C@@H](CCC(N)=O)C(=O)N[C@@H](CC(=O)O)C(=O)N[C@@H](Cc1ccccc1)C(=O)N[C@H](C(=O)N[C@@H](CCC(N)=O)C(=O)N[C@@H](Cc1c[nH]c2ccccc12)C(=O)N[C@@H](CC(C)C)C(=O)N[C@@H](CC(C)C)C(=O)N[C@@H](CC(N)=O)C(=O)N[C@H](C(=O)NCC(=O)NCC(=O)N1CCC[C@H]1C(=O)N[C@@H](CO)C(=O)N[C@@H](CO)C(=O)NCC(=O)N[C@@H](C)C(=O)N1CCC[C@H]1C(=O)N1CCC[C@H]1C(=O)N1CCC[C@H]1C(=O)N[C@@H](CO)C(N)=O)[C@@H](C)O)C(C)C)C(=O)O,,,male rhesus monkeys,"20 µg/kg, day 28",Cmax,25.4 ng/mL
O=C(C=Cc1ccc(O)c(O)c1)OC1CC(O)(C(=O)O)CC(OC(=O)C=Cc2ccc(O)c(O)c2)C1O (stereo not shown),Severe acute respiratory syndrome coronavirus 2,cytopathic effect,Vero C1008,12.5 µM,inhibition,0%

# Repeated from above:
SMILES,target or system,assay,test system,conditions,endpoint,value
CC(=O)OC1(C)CC(C=C(C)CCC=C(C)C)OC2(C=C(CO)C3CC(=O)C(C)=CC3O2)C1 (stereo not shown),Severe acute respiratory syndrome coronavirus 2,viral replication,Calu-3,50 µM,inhibition,91%
CC(=O)OCC1OC(OC2CCC3(C)C(CCC4(C)C3CC=C3C5CC(C)(C)CCC5(C(=O)O)CCC34C)C2(C)C)C(OC2OC(C)C(OC(C)=O)C(OC(C)=O)C2OC(C)=O)C(OC(C)=O)C1OC1OC(C)C(OC(C)=O)C(OC(C)=O)C1OC(C)=O (stereo not shown),Severe acute respiratory syndrome coronavirus 2,viral replication,293T/ACE2,20 µM,inhibition,48.2%
